# Experimental data collected from several papers.
# Compare with care: the assays were run in different laboratories. ± gives the spread as reported.
# Technique: steady-state kinetics
# B1: ycjR (Escherichia coli, UniProt P76044); chain MKIGTQNQAFFPENILEKFRYIKEMGFDGFEIDGKLLVNNIEEVKAAIKETGLPVTTACGGYDGWIGDFIEERRLNGLKQIERILEALAEVGGKGIVVPAAWGMFTFRLPPMTSPRSLDGDRKMVSDSLRVLEQVAARTGTVVYLEPLNRYQDHMINTLADARRYIVENDLKHVQIIGDFYHMNIEEDNLAQALHDNRDLLGHVHIADNHRYQPGSGTLDFHALFEQLRADNYQGYVVYEGRIRAEDPAQAYRDSLAWLRTC
# B2: Mj-MAT W387F/Y49W (Methanocaldococcus jannaschii, UniProt Q58605); chain MRNIIVKKLDVEPIEERPTEIVERKGLGHPDSICDGIAESVSRALCKMWMEKFGTILHHNTDQVELVGGHAYPKFGGGVMVSPIYILLSGRATMEILDKEKNEVIKLPVGTTAVKAAKEYLKKVLRNVDVDKDVIIDCRIGQGSMDLVDVFERQKNEVPLANDTSFGVGYAPLSTTERLVLETERFLNSDELKNEIPAVGEDIKVMGLREGKKITLTIAMAVVDRYVKNIEEYKEVIEKVRKKVEDLAKKIADGYEVEIHINTADDYERESVYLTVTGTSAEMGDDGSVGRGNRVNGLITPFRPMSMEAASGKNPVNHVGKIYNILANLIANDIAKLEGVKECYVRILSQIGKPINEPKALDIEIITEDSYDIKDIEPKAKEIANKFLDNIMEVQKMIVEGKVTTF
# B3: Tcur_2987 W376F (Thermomonospora curvata, UniProt D1A807); chain ACSEERAAGARPSATQTTGTATEPFHGPHQAGIATPPQAHAVFLGLDLRKGTGRKELGRLMRLLTDDARRLTQGRPALADPEPDLAPLPSRLTFTFGFGPGLFKAAGLEKQRPEGLRPLPPFKVDRLEDRWSGGDLLVQICCDDPITLAHALRMTVKDARAFTRVRWVQRGFRRSPGVQSSGATQRNLMGQLDGTVNPVPGTADFDQAVWVQDGPEWLRGGTTLVLRRIRMELEKWDEADPAGKEFAVGRRLTSGAPLTGRHEHDEPDFDAVDSAGFPVIAENAHIRLAHVDSPRLRMLRRPYNYDEGLTADGRSDAGLLFAAYQADIDRQFIPVQRRLDEGGDLLNLFTTPIGSAVFAIPPGCDENGWIGQGLLG
# B4: BPHL (Homo sapiens, UniProt Q86WA6); chain SVTSAKVAVNGVQLHYQQTGEGDHAVLLLPGMLGSGETDFGPQLKNLNKKLFTVVAWDPRGYGHSRPPDRDFPADFFERDAKDAVDLMKALKFKKVSLLGWSDGGITALIAAAKYPSYIHKMVIWGANAYVTDEDSMIYEGIRDVSKWSERTRKPLEALYGYDYFARTCEKWVDGIRQFKHLPDGNICRHLLPRVQCPALIVHGEKDPLVPRFHADFIHKHVKGSRLHLMPEGKHNLHLRFADEFNKLAEDFLQ
# B5: Saccharopine reductase Y99F (Saccharomyces cerevisiae, UniProt P38999); chain MGKNVLLLGSGFVAQPVIDTLAANDDINVTVACRTLANAQALAKPSGSKAISLDVTDDSALDKVLADNDVVISLIPYTFHPNVVKSAIRTKTDVVTSSFISPALRELEPEIVKAGITVMNEIGLDPGIDHLYAVKTIDEVHRAGGKLKSFLSYCGGLPAPEDSDNPLGYKFSWSSRGVLLALRNSAKYWKDGKIETVSSEDLMATAKPYFIYPGYAFVCYPNRDSTLFKDLYHIPEAETVIRGTLRYQGFPEFVKALVDMGMLKDDANEIFSKPIAWNEALKQYLGAKSTSKEDLIASIDSKATWKDDEDRERILSGFAWLGLFSDAKITPRGNALDTLCARLEELMQYEDNERDMVVLQHKFGIEWADGTTETRTSTLVDYGKVGGYSSMAATVGYPVAIATKFVLDGTIKGPGLLAPYSPEINDPIMKELKDKYGIYLKEKTVA
# B6: protein Y93T (Thermus thermophilus, UniProt Q5SKR5); chain MSAPKPFVIGIAGGTASGKTTLAQALARTLGERVALLPMDHYYKDLGHLPLEERLRVNYDHPDAFDLALYLEHAQALLRGLPVEMPVYDFRATTRSPRRTPVRPAPVVILEGILVLYPKELRDLMDLKVFVDADADERFIRRLKRDVLERGRSLEGVVAQYLEQVKPMHLHFVEPTKRYADVIVPRGGQNPVALEMLAAKALARLARMGAA
# B7: Nudt8 (Mus musculus, UniProt Q9CR24); chain MLPDGLSAEDEQRCRQLLARTTARLRSRPAAAAVLVPLCLVRGVPALLYTLRSSRLVGRHKGEVSFPGGKCDPDDQDVIHTALRETQEELGLEVPKEHVWGVLQPVYDREKATIVPVLANVGPLDLQSLRPNLEEVDEVFEMSLAHLLQTQNQGYTHFCQGGHFSYTLPVFLHGPHRVWGLTAVITELTLKLLAPGFYQPSLAVPELPRG
# B8: SUOX P168A (Homo sapiens, UniProt P51687); chain ESTHIYTKEEVSSHTSPETGIWVTLGSEVFDVTEFVDLHPGGPSKLMLAAGGPLEPFWALYAVHNQSHVRELLAQYKIGELNPEDKVAATVETSDPYADDPVRHPALKVNSQRPFNAEPPPELLTENYITPNPIFFTRNHLPVPNLDPDTYRLHVVGAPGGQSLSLSLDDLHNFPRYEITVTLQCAGNRRSEMTQVKEVKGLEWRTGAISTARWAGARLCDVLAQAGHQLCETEAHVCFEGLDSDPTGTAYGASIPLARAMDPEAEVLLAYEMNGQPLPRDHGFPVRVVVPGVVGARHVKWLGRVSVQPEESYSHWQRRDYKGFSPSVDWETVDFDSAPSIQELPVQSAITEPRDGETVESGEVTIKGYAWSGGGRAVIRVDVSLDGGLTWQVAKLDGEEQRPRKAWAWRLWQLKAPVPAGQKELNIVCKAVDDGYNVQPDTVAPIWNLRGVLSNAWHRVHVYVSP
# Sequence of UniProt P00968 (whole entry, looked up): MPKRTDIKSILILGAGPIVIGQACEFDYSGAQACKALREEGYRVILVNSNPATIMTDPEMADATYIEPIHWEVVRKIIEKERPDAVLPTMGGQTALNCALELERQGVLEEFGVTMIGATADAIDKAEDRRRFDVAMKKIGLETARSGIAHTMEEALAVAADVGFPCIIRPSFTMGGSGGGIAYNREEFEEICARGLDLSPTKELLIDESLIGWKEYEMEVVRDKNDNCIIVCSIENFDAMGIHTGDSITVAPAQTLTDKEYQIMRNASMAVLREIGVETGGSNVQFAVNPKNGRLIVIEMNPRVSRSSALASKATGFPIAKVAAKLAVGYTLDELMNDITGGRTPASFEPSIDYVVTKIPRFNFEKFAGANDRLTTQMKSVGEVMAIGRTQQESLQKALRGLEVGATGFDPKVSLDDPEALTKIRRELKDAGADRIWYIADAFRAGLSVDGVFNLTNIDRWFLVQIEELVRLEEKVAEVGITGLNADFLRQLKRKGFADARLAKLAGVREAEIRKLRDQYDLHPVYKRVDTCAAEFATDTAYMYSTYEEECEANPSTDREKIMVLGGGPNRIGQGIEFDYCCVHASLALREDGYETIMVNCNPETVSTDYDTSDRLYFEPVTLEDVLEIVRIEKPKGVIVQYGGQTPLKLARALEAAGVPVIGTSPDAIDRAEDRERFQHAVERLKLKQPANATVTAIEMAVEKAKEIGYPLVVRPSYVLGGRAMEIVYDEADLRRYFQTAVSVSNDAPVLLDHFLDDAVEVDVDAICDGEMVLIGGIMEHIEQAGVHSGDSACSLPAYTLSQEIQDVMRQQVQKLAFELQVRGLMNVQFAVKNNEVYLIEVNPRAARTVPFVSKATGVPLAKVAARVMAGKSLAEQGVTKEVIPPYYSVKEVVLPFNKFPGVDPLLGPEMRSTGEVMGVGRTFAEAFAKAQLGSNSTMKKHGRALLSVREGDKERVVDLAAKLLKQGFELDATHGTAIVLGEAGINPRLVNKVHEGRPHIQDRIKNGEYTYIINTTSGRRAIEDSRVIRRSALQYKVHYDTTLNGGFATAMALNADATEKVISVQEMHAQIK
# Sequence of UniProt Q9NP58 (whole entry, looked up): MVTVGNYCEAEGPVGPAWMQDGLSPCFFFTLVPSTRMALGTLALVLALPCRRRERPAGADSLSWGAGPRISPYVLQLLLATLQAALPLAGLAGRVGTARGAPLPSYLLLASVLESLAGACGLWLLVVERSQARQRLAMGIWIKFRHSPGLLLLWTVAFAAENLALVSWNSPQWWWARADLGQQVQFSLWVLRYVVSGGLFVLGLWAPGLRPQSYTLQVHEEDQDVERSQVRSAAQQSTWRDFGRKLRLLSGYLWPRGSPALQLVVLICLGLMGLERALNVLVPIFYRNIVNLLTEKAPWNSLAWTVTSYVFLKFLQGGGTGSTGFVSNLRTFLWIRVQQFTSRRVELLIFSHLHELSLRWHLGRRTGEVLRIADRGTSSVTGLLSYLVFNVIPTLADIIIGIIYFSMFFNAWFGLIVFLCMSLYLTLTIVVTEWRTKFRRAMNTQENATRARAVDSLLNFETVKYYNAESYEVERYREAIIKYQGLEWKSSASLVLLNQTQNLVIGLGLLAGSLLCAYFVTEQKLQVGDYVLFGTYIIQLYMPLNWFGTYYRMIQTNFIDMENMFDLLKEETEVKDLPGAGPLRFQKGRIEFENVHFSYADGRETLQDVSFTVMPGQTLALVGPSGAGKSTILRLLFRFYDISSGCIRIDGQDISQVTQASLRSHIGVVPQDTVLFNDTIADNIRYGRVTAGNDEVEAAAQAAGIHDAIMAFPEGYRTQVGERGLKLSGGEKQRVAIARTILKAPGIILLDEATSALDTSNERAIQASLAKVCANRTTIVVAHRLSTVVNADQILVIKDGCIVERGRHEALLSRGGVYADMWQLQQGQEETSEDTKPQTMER
# Sequence of UniProt Q29437 (whole entry, looked up): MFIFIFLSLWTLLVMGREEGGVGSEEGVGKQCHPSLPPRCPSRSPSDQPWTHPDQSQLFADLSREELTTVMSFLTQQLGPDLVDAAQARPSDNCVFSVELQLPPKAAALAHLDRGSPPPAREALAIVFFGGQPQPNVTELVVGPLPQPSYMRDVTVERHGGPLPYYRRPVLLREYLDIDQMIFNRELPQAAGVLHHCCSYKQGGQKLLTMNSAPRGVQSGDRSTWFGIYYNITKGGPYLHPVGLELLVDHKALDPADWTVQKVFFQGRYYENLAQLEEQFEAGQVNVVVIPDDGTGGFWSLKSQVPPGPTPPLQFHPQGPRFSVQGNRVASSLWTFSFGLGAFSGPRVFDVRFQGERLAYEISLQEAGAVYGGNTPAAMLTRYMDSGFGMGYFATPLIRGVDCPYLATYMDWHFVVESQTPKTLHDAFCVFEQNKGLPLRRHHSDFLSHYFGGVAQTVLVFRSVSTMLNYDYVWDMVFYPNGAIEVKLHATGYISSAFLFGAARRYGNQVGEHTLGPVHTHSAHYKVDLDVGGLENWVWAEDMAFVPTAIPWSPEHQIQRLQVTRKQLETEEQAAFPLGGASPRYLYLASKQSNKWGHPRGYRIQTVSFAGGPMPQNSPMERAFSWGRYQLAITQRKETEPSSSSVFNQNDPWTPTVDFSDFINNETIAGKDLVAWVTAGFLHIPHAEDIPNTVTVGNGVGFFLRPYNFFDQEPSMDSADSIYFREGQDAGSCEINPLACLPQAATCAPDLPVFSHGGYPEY
Molecule,substrate,setting,kcat [s⁻¹]
B1 (ycjR),CO[C@H]1O[C@H](CO)[C@@H](O)C(=O)[C@H]1O,"pH 8, 30 °C, together with: MnCl2 0.5 mM, NADH 0.3 mM",19.2 ± 1.7
B2 (Mj-MAT W387F/Y49W),CSCC[C@H](N)C(=O)O,"55 °C, together with: ATP 2.5 mM, methionine 0.05-1 mM",1 ± 0.3
"ABCB6 (Homo sapiens, UniProt Q9NP58)",C=CC1=C(C)c2cc3[nH]c(cc4nc(cc5[nH]c(cc1n2)c(C)c5CCC(=O)O)C(CCC(=O)O)=C4C)c(C)c3C=C,"pH 8, 37 °C",0.162
"carbamoyl phosphate synthetase large subunit (Escherichia coli, UniProt P00968)",Nc1ncnc2c1ncn2[C@@H]1O[C@H](COP(=O)(O)OP(=O)(O)OP(=O)(O)O)[C@@H](O)[C@H]1O,"pH 7.6, KCl 100 mM, together with: glutamine 10 mM, ornithine 10 mM",3.6 ± 0.11
B3 (Tcur_2987 W376F),Nc1c(S(=O)(=O)O)cc(Nc2cccc(S(=O)(=O)CCOS(=O)(=O)O)c2)c2c1C(=O)c1ccccc1C2=O,"pH 3, sigmoidal kinetics, together with: H2O2 1 mM",119 ± 5
B4 (BPHL),CC(C)[C@H](N)C(=O)NCc1cccc(NC=NN)c1,"pH 7.4, 37 °C",0.00229 ± 4e-05
B5 (Saccharopine reductase Y99F),N[C@@H](CCCCN[C@@H](CCC(=O)O)C(=O)O)C(=O)O,"pH 9, 25 °C, together with: saccharopine",0.29 ± 0.01
"alanine aminopeptidase (Neisseria meningitidis, UniProt Q9JYV4)",C[C@H](N)C(=O)Nc1ccc2c(CC(N)=O)cc(=O)oc2c1,"pH 7.5, 37 °C",28.4 ± 1
"CPR (Sorghum bicolor, UniProt C5YJG8)",NC(=O)C1=CN([C@@H]2O[C@H](COP(=O)(O)OP(=O)(O)OC[C@H]3O[C@@H](n4cnc5c(N)ncnc54)[C@H](OP(=O)(O)O)[C@@H]3O)[C@@H](O)[C@H]2O)C=CC1,"pH 7.4, 25 °C",15.8 ± 0.492
B6 (protein Y93T),Nc1ccn([C@@H]2O[C@H](CO)[C@@H](O)[C@H]2O)c(=O)n1,"pH 7.2, 25 °C, KCl 100 mM, together with: ATP 100–200 µM",3.1 ± 0.1
"Plasma amine oxidase (Bos taurus, UniProt Q29437)",CN(C)CCOc1ccc2cc(CN)ccc2c1,"pH 7.2, 30 °C",0.436 ± 0.02
B7 (Nudt8),CCC(=O)SCCNC(=O)CCNC(=O)[C@H](O)C(C)(C)COP(=O)(O)OP(=O)(O)OC[C@H]1O[C@@H](n2cnc3c(N)ncnc32)[C@H](O)[C@@H]1OP(=O)(O)O,"pH 8.5, together with: 2 mM Mn2+",2.58 ± 0.233
B8 (SUOX P168A),O=S(O)O,"pH 8, 25 °C, together with: oxidized cyt c 400 µM",50 ± 3

# For quick reference, copied from above:
Molecule,substrate,setting,kcat [s⁻¹]
B8 (SUOX P168A),O=S(O)O,"pH 8, 25 °C, together with: oxidized cyt c 400 µM",50 ± 3
